Experimental data pooled from the literature.
Each line is one published result; not all experiments were run side by side. Several values in a cell are separate wells, animals, samples, runs or records. ± gives the spread as reported.

| Structure (SMILES) | test | test system | setting | how to read | measurement | result |
| --- | --- | --- | --- | --- | --- | --- |
| C[C@@H](N)C1CCN(S(=O)(=O)c2cccc3cnccc23)CC1 | measured: Dizziness | healthy volunteers | 150 mg, fed |  | TEAE incidence | 0% |
| COc1cc2nccc(Oc3ccc(NC(=O)c4cc5c(n(-c6ccccc6)c4=O)CCCC5=O)nc3)c2cc1OC |  | patients with relapsed/refractory AML | oral, 3 mg once daily |  | TEAEs leading to discontinuation | 10% |
| COc1cccc(O)c1OS(=O)(=O)O |  | human CSF | concentration not given, mean |  | CSF concentration | not detected |
| Cl.[2H]C([2H])([2H])CC(=O)c1cnc(NC(=O)C2CC2)cc1Nc1cccc(-c2ncn(C([2H])([2H])[2H])n2)c1OC | median | human | oral, 10 mg single dose, fasted, liquid |  | Tmax | 52.8 min |
| O=C1NCCc2nc(OCc3cccc(F)c3)ccc21 | measured: Piloerection | Sprague-Dawley rat, male | oral, 100 mg/kg, 1 h, score 0 none to 2 full | direction not given | Irwin test score | 0 |
| Cc1cc(C)c(CNC(=O)c2cc(Cl)c3c(c2C)O[C@@](C)([C@H]2CC[C@H](N(C)C)CC2)O3)c(=O)[nH]1 |  | relapsed/refractory NHL patients | oral, 200 mg once daily, onset after cycle 1 day 1 |  | adverse event Fatigue | 29.2% |
| CCN1/C(=C/C(C)=O)Sc2ccc(F)cc21 |  | cynomolgus monkey | oral, 30 mg/kg, 2 h post-dose |  | PR interval | 88 ± 4 ms |
| O=C(O)CCC(=O)O.[2H]C([2H])([2H])Oc1cc(C)c2[nH]ccc2c1CN1CC[C@@H](C2CC2)C[C@H]1c1ccc(C(=O)O)cc1 |  | human, plasma | 200 mg once daily, day 1, multiple ascending dose, geometric mean |  | AUC(0-tau) | 35000 ng·h/mL |
| COc1cc(N)c(Cl)cc1C(=O)NC1CCN(CCCOc2ccc(F)cc2)CC1OC (centres unmarked) |  | male Hartley guinea pigs, anaesthetized | intravenous, 0.3 mg/kg over 10 min, after infusion |  | heart rate | 208 ± 0.6 beats/min |
| COC(=O)N[C@H](C(=O)N[C@@H](Cc1ccccc1)[C@@H](O)CN(Cc1ccc(-c2ccccn2)cc1)NC(=O)[C@@H](NC(=O)OC)C(C)(C)C)C(C)(C)C | modified PAMPA Franz cell | phosphate buffer with HPMCAS | 3 h, 1000 rpm, 460 nm particles, with: no BSA |  | plateau flux concentration | 190 µg/mL |
| CNC(=O)c1ccc(-c2cnc3ncc(Cc4ccc5ncccc5c4)n3n2)cc1F | measured: Dyspepsia | gastric cancer patients | oral, 600 mg twice daily, expansion cohort, grade 3-4 |  | patients with adverse event | 0% |
| O=C(Nc1nc2cccc(-c3ccc(CN4CCS(=O)(=O)CC4)cc3)n2n1)C1CC1 | measured: pyrexia | rheumatoid arthritis patients | oral, 30 mg once daily, 4 weeks, any relatedness |  | treatment-emergent adverse events | 0% |
| O=C(COc1ccc(Cl)cc1)NC12CC(c3nnc([C@H]4C[C@@H](OC(F)(F)F)C4)o3)(C1)C2 |  | human both sexes | oral, 200 mg once daily, 14 days |  | participants with headache | 28.6% |
| COc1c(N2C[C@@H]3CCCN[C@@H]3C2)c(F)cc2c(=O)c(C(=O)O)cn(C3CC3)c12 |  | male Hartley guinea pigs, anaesthetized | intravenous, 5 mg/kg group, baseline before infusion |  | heart rate | 264 ± 0.6 beats/min |
| C=CC(=O)NC1CCN(c2ncc3ncnc(Nc4ccc(Oc5ccc6c(c5)ncn6C)c(C)c4)c3n2)CC1 | measured: blood and lymphatic disorders (SOC) | human male | oral, dose not given, CTCAE on-treatment AEs |  | adverse events incidence | 0% |
| CN(C(=O)n1cnc(-c2cccnc2)c1)C1CCCCC1 |  | Wistar rat, medulla oblongata | oral, 10 mg/kg, 24 h, single dose |  | tissue concentration | 6 ± 3 ng/g |
| CC[C@H](C)[C@H](NC(=O)[C@H](Cc1ccccc1)NC(=O)[C@H](CCC(=O)O)NC(=O)[C@H](CCCCNC(=O)COCCOCCNC(=O)COCCOCCNC(=O)CC[C@H](NC(=O)CCCCCCCCCCCCCCCCC(=O)O)C(=O)O)NC(=O)[C@H](C)NC(=O)[C@H](C)NC(=O)[C@H](CCC(N)=O)NC(=O)CNC(=O)[C@H](CCC(=O)O)NC(=O)[C@H](CC(C)C)NC(=O)[C@H](Cc1ccc(O)cc1)NC(=O)[C@H](CO)NC(=O)[C@H](CO)NC(=O)[C@@H](NC(=O)[C@H](CC(=O)O)NC(=O)[C@H](CO)NC(=O)[C@@H](NC(=O)[C@H](Cc1ccccc1)NC(=O)[C@@H](NC(=O)CNC(=O)[C@H](CCC(=O)O)NC(=O)C(C)(C)NC(=O)[C@@H](N)Cc1cnc[nH]1)[C@@H](C)O)[C@@H](C)O)C(C)C)C(=O)N[C@@H](C)C(=O)N[C@@H](Cc1c[nH]c2ccccc12)C(=O)N[C@@H](CC(C)C)C(=O)N[C@H](C(=O)N[C@@H](CCCNC(=N)N)C(=O)NCC(=O)N[C@@H](CCCNC(=N)N)C(=O)NCC(=O)O)C(C)C | hypoglycaemic clamp | type 2 diabetes patients | dose not given, from glucose nadir to recovery |  | heart rate change | -5.4 beats/min |
| CCc1cc(C(=O)NC)c2nccc(N3CCc4c(cc(Cn5ccnc5)cc4-c4cn(C)nc4C(F)(F)F)C3=O)c2c1 |  | Sprague Dawley rats | oral, 50 mg/kg once daily, 7 days |  | serum albumin | 32.4 ± 0.7 g/L |
| CCOCc1nc(O)c(-c2nnc(Cc3ccc(Cl)cn3)o2)c(O)c1-c1c(OC)cccc1OC |  | rat, anaesthetised, cannulated, plasma | intravenous infusion, 100 µg/kg/min, 5 min |  | plasma concentration | 8.17 µM |
| CC[C@H]1OC(=O)[C@H](C)[C@@H](O[C@H]2C[C@@](C)(OC)[C@@H](O)[C@H](C)O2)[C@H](C)[C@@H](O[C@@H]2O[C@H](C)C[C@H](N(C)C)[C@H]2O)[C@](C)(O)C[C@@H](C)C(=O)[C@H](C)[C@@H](O)[C@]1(C)O | equilibrium dialysis | human liver microsomes | 2 µM, 20 h, pH 7.4, 37 °C, 0.5 mg/mL scaled to 1 mg/mL |  | fu,mic | 0.563 |
| CCOc1c([C@H](C)n2nc(C)c3c(N)ncnc32)cc(Cl)c(F)c1[C@@H]1CNC(=O)C1 | measured: QTcF change above 60 ms | previously treated B-cell malignancy | oral, 30 mg once daily, overall population | reference: baseline | ECG observations | 0% |

| Structure (SMILES) | test | test system | setting | how to read | measurement | result |
| --- | --- | --- | --- | --- | --- | --- |
| CCCOc1ccc(NC(=O)CN2CCN(C)CC2)cc1-c1nc(CC)c(CC)c(=O)[nH]1 |  | healthy Chinese men | 10 mg, with: placebo alcohol |  | nasal obstruction incidence | 20% |
| Cc1cc(Nc2ncnc3ccc(NC4=NC(C)(CO)CO4)cc23)ccc1Oc1ccn2ncnc2c1 (centres unmarked) |  | human, plasma | oral, 300 mg tucatinib single dose, day 1, tucatinib alone |  | AUC(0-t) (arithmetic mean) | 463 ng·h/mL |
| OC[C@H]1O[C@@H](c2ccc(F)c(Cc3cc4ccccc4s3)c2)[C@H](O)[C@@H](O)[C@@H]1O |  | Japanese patients, type 1 diabetes | oral, 100 mg/day, onset day 11 | reference: patients | hypoglycaemia-related adverse event | 4% |
| COc1cccc(-c2n[nH]c(SCc3ccccn3)n2)c1OC |  | Sprague-Dawley rats, both sexes | oral dietary, 30 mg/kg/day, day 7, 24 h |  | plasma concentration | 575 ng/mL |
| CNC(=O)c1ccc(-c2cnc3ncc(Cc4ccc5ncccc5c4)n3n2)cc1F |  | healthy human subjects | oral, 400 mg, Nausea, grade 3, all causality, with: rifampicin 600 mg/day |  | subjects with adverse event | 0% |
| O=C(O)CCc1ccc(O)c(O)c1 |  | human CSF | concentration not given, mean |  | CSF concentration | not detected |
| CN(CCC(=O)O)C(=O)c1ccc2c(c1)CC[C@@H]1[C@@H]2CC[C@]2(C)C(c3cncc(F)c3)=CC[C@@H]12 |  | premenopausal women with endometriosis pain, serum | 60 mg twice daily, end of treatment, completers, mean |  | indirect bilirubin | 0.62 mg/dL |
| C=CCN1CC(=O)N2[C@@H](Cc3ccc(O)cc3F)C(=O)N(Cc3cccc(N4CC(N5CCN(CC)CC5)C4)n3)C[C@@H]2N1C(=O)NCc1ccccc1 |  | advanced solid tumour patients | oral, 45 mg twice daily, grade ≥3, dose-escalation |  | treatment-related nausea | 0% |
| Cc1cc(-c2nccc3c2ccn3CC(=O)Nc2ccc(-c3cnccn3)cn2)ccn1 |  | human | 5 mg once daily, multiple ascending dose |  | subjects with Costochondritis adverse event | 0% |
| CC[C@H](C)[C@H](NC(=O)[C@H](Cc1ccccc1)NC(=O)[C@H](CCC(=O)O)NC(=O)[C@H](CCCCNC(=O)COCCOCCNC(=O)COCCOCCNC(=O)CC[C@H](NC(=O)CCCCCCCCCCCCCCCCC(=O)O)C(=O)O)NC(=O)[C@H](C)NC(=O)[C@H](C)NC(=O)[C@H](CCC(N)=O)NC(=O)CNC(=O)[C@H](CCC(=O)O)NC(=O)[C@H](CC(C)C)NC(=O)[C@H](Cc1ccc(O)cc1)NC(=O)[C@H](CO)NC(=O)[C@H](CO)NC(=O)[C@@H](NC(=O)[C@H](CC(=O)O)NC(=O)[C@H](CO)NC(=O)[C@@H](NC(=O)[C@H](Cc1ccccc1)NC(=O)[C@@H](NC(=O)CNC(=O)[C@H](CCC(=O)O)NC(=O)C(C)(C)NC(=O)[C@@H](N)Cc1cnc[nH]1)[C@@H](C)O)[C@@H](C)O)C(C)C)C(=O)N[C@@H](C)C(=O)N[C@@H](Cc1c[nH]c2ccccc12)C(=O)N[C@@H](CC(C)C)C(=O)N[C@H](C(=O)N[C@@H](CCCNC(=N)N)C(=O)NCC(=O)N[C@@H](CCCNC(=N)N)C(=O)NCC(=O)O)C(C)C |  | human, type 2 diabetes | dose not given, back pain, during treatment | reference: subjects | incidence of adverse events | 13.3% |
| CC(=O)N[C@H]1[C@H]([C@H](O)[C@H](O)CO)OC(C(=O)O)=C[C@@H]1N=C(N)N | HPLC | HBSS | 0.1 µg/mL, 36 h, room temperature, short-term stability |  | recovery | 95.7% |
| COc1ccc(C=CC(=O)O)cc1O[C@@H]1O[C@H](C(=O)O)[C@@H](O)[C@H](O)[C@H]1O |  | human CSF | concentration not given, mean |  | CSF concentration | not detected |
| CN(C)C(=N)N=C(N)N | measured: phlebitis | healthy men | oral, dose not given, 8 days, treatment-emergent, crossover trial |  | subjects with adverse event | 4.5% |
| COc1ccc2nc([S@@+]([O-])Cc3ncc(CO)c(OC)c3C)[nH]c2c1 |  | human, dried plasma spots | 5 mg racemic omeprazole, with: fluvoxamine and voriconazole |  | AUC(0-8 h) | 0.0436 µM·h |
| CO[C@@H]1[C@H](OC(=O)N2CC(CCN3CCOCC3)C2)CC[C@]2(CO2)[C@H]1[C@@]1(C)O[C@@H]1CC=C(C)C |  | humans | subcutaneous, 1.8 mg twice weekly for 4 weeks, day 28 | reference: baseline | activated partial thromboplastin time | -1.7 ± 0.8 s |
| N#Cc1ccc2c(c1)[C@H]1CCCN(C(=O)c3ccc4[nH]cnc4c3)[C@H]1C2 |  | human | 160 mg, end of trial |  | mean ACTH level | 5.4 pmol/L |
| Nc1ncnc2c1ncn2[C@H]1C[C@@H]2OP(=O)(O)OC[C@H]3O[C@@H](n4cnc5c(N)ncnc54)C[C@@H]3OP(=O)(O)OC[C@H]2O1 |  | non-tumor-bearing mice, serum | intravenous, 1 mg/kg, toxicity study |  | ALT | 66 ± 5.03 U/L |
| CC(C)(C(=O)N1CCOc2c(C#N)cncc2C1)C(F)F | measured: abdominal pain | human | oral, 20 mg twice daily, 14 days, multiple ascending dose |  | subjects with adverse event | 0% |
| CCCC(CCC)C(=O)Oc1cccc(C(O)CCN)c1.O=CO (centres unmarked) |  | Abca4-/-Rdh8-/- mice, photic damage | intraperitoneal, 10 mg/kg, 7 days, flash intensity 10 |  | photopic S-cone ERG b-wave | 41.8 µV and 40.2 µV and 29.7 µV and 48.3 µV and 42.2 µV and 38.4 µV and 54.3 µV and 30.8 µV |
| Cc1cc(/C=C/C#N)cc(C)c1Nc1ccnc(Nc2ccc(C#N)cc2)n1 | USP II dissolution | HCl with polysorbate | 60 min, pH 2.0, 37 °C, 12.5 mg capsule, 100 rpm |  | dissolved amount | ~36% |
